Assay results of several laboratories.
Each line is one published result; not all experiments were run side by side. “And” joins repeats or separate records; there may be more than shown. Numbers after ± are the reported error.

| SMILES | cell line | test | system | setting | scale | measurement | value |
| --- | --- | --- | --- | --- | --- | --- | --- |
| Cc1nn(-c2nc3ccc(Cl)c(Cl)c3[nH]2)c(O)c1C1OC(=O)c2ccccc21 (stereo not drawn) | RAW-ISG | western blot |  | 10 µM, added: HT-DNA | reference: vehicle | phospho-IRF3/IRF3 ratio | 0.455 and 0.471 and 0.731 |
| Cn1cc(-c2ccc(-c3cncc(Cl)c3N3CCC4(CCNC4=O)CC3)cc2)cn1 | COLO 205 | gene expression, microarray, measured: IRF7 mRNA |  | concentration not given, 2 h | reference: untreated cells | log2 fold change | 2.09 |
| O=C(O)C(Cc1c[nH]c2ccccc12)N1C(=O)c2ccccc2C1=O (stereo not drawn) | OCI-Ly1 |  |  | 0.1 µM, 120 h |  | viability | 186% |
| COc1cccc2c1C(=O)c1c(O)c3c(c(O)c1C2=O)C[C@@](O)(C(=O)CO)C[C@@H]3O[C@H]1C[C@H](N)[C@H](O)[C@H](C)O1 | HC-11 | cytotoxicity, WST-1 |  | 72 h, highest tested concentration |  | Emax | 93.1% |
| CC(=O)c1nn(-c2ccc(Cl)cc2)/c(=N/N=C(\C)c2ccc(NC(=O)c3ccc(C)cc3)cc2)s1 | HepG2 |  |  | 1.25 µM |  | toxicity | 82% |
| CNc1nc2c(c(N3CC(=O)Nc4cc(OC)ccc43)n1)CCC2 | HCI-10-Luc2 | chemotaxis |  | added: human HGF 50 nM |  | lowest effective concentration | ≥ 1 nM |
| COc1cc(/C=C/c2ccc(O)cc2)cc(OC)c1 | iPSC-derived cardiomyocytes | concentration-response fit |  | concentration not given | reference: vehicle | fitted bottom MyBP-C level | 0% |
| CCn1cc(-c2cc(Cn3ccoc3=N)cc3c2CCN([C@@H](C)c2cc(OC)ccn2)C3=O)c(C(F)(F)F)n1 | SW900 | cell growth, inhibitor |  | 120 h |  | EC50 | 0.0373 µM |
| Cn1cc(Nc2nccc(-c3ccc4c(c3)CN(C3COC3)CC[C@H]4NC(=O)c3cn(C(C)(C)C)nn3)n2)cn1 | mouse splenic B cells | measured: Gαs signalling |  | 30 mg/kg, IgD-activated in vivo | reference: vehicle, direction not given | pathway activation z-score | 2.89 |
| O=C(/C=C/N1C[C@H]2C[C@@H]1CN2c1ccccn1)c1ccccc1O | OCI-Ly1 |  |  | 1 µM, 120 h |  | viability | 40.7% |
| CCCCc1oc2ccc(NS(C)(=O)=O)cc2c1C(=O)c1ccc(OCCCN(CCCC)CCCC)cc1 | human embryonic stem cell aggregates | mRNA level, microarray, measured: FGD4 |  | 0.5 µM, 120 h | reference: untreated, up-regulated | fold change | 1.8 fold |
| Nc1ncnc2c1ncn2[C@@H]1O[C@H](CO)[C@@H](O)[C@H]1O | activated human T cells | measured: ATP |  | 10 µM | reference: DMSO | log2 fold change | 0.6 and 1 |
| Cc1n[nH]c2nc(-c3ccc(Cl)cc3)c3c(NC(=O)c4ccccc4)nnc-3n12 | 786-0 | NCI60 SRB |  | 10 µM |  | growth percent | 103% |
| CCCCCCCCOC(=O)C(=O)CCC(=O)O | OCI-Ly1 |  |  | 0.1 µM, 120 h |  | viability | 124% |
| Cc1cc(Nc2ncc(Cl)c(Nc3ccccc3S(=O)(=O)C(C)C)n2)c(OC(C)C)cc1C1CCNCC1 | CLB-GE | phosphoproteomics LC-MS/MS, measured: BICD2 phosphorylation |  | 200 nM, 60 min | reference: untreated | log2 fold change | -1.74 |
| CCC(=O)N1CCOc2c(cc(-c3ccc(OC)c(OC)c3)cc2OC[C@H]2CCCN(C)C2)C1 | OCI-Ly1 |  |  | 0.5 µM, 120 h |  | viability | 125% |
| O=C(C[C@@H](C(F)F)n1ccc(F)n1)N1CCC(O)(Cn2cnc3c(cnn3-c3ccc(F)cc3)c2=O)CC1 | CHP-212 resistant | annexin V/PI flow cytometry |  | 0.1 µM, 48 h |  | apoptotic cells | 12.7% |
| COc1cnc2cccc(N3CCc4c(cc(Cn5ccnc5C)cc4-c4cn(C)nc4C(F)(F)F)C3=O)c2c1 | HCC1954 | cell growth, inhibitor |  | 120 h |  | EC50 | 7.3 µM |
| CCNC(=O)c1noc(-c2cc(C(C)C)c(O)cc2O)c1-c1ccc(CN2CCOCC2)cc1 | iPSC-derived cardiomyocytes | concentration-response fit |  |  | reference: vehicle | fitted bottom MyBP-C/MYH ratio | 43.7% |
| C[C@H]1Oc2cc(cnc2N)-c2c(nn(C)c2C#N)CN(C)C(=O)c2ccc(F)cc21 | Ba/F3 EML4-ALK v3, no mutation | cell viability |  |  |  | Emax | 99.5% |
| CC(=O)Nc1cccc(-n2c(=O)n(C3CC3)c(=O)c3c(Nc4ccc(I)cc4F)n(C)c(=O)c(C)c32)c1 | COLO 205 (BRAF V600E) |  |  | 6.25 nM | reference: DMSO | fractional effect | 89% |
| CCN(CCO)CCCC(C)Nc1ccnc2cc(Cl)ccc12 (stereo not drawn) | hiPSC-derived ventricular cardiomyocytes | perforated patch voltage clamp |  | 10 µM, 3-5 min, unit not given | reference: pre-drug control | steady funny current | 0.98 and 1 and 0.94 and 1.14 and 0.91 |
| C[C@H]1[C@H](C)CC[C@]2(C)CC[C@]3(C)C(=CC(=O)[C@@H]4[C@@]5(C)CC[C@@H](O)[C@](C)(C(=O)NCc6cn(-c7cccc(Br)c7)nn6)[C@@H]5CC[C@]43C)[C@H]12 | human PBMCs | flow cytometry |  | 5 µM | reference: CD8+ T cells | PD-1 positive cells | 22.1% |
| O=C(O)CCCc1ccccc1 | OCI-Ly1 |  |  | 0.1 µM, 120 h |  | viability | 193% |

| SMILES | cell line | test | system | setting | scale | measurement | value |
| --- | --- | --- | --- | --- | --- | --- | --- |
| FC(F)(F)Oc1ccc(CNc2ccc3nc(S)[nH]c3c2)cc1 | sample A patient iPSC-derived NPCs | MTS |  | 10 µM, 24 h | reference: vehicle | viability | 95.98 ± 0.95% |
| CCn1cc(-c2cc(Cn3ccnc3)cc3c2CCN([C@H](c2cc(OC)ccn2)C2CC2)C3=O)c(C(F)(F)F)n1 | SNU878 | cell growth, inhibitor |  | 120 h |  | EC50 | 21.2 µM |
| CN(C)c1ccc2nc3ccc(=[N+](C)C)cc-3sc2c1 | mouse CA1 pyramidal neurons | patch clamp | hippocampal slices | 10 µM |  | mIPSC charge transfer | decreased |
| COc1cc(/C=C/C(=O)N2CCC=CC2=O)cc(OC)c1OC | MDA-MB-468 | qRT-PCR, measured: NQO1 |  | 30 µM, 6 h | reference: time zero | mRNA level | 127 ± 19.5% |
| Cn1cc(-n2cnc3c(NCc4nc5cc(Cl)c(Cl)cc5[nH]4)nc(N4CCOCC4)nc32)cn1 | MDA-MB-231 | qRT-PCR, measured: SMARCC2 |  | 0.05 µM, 6 h, unit not given | reference: DMSO | mRNA level | 0.814 and 0.741 and 0.674 |
| C[C@]12CCCN1CC1=NNC(=O)c3cc(F)cc4[nH]c2c1c34 | SNU-16 gastric cancer cells | cell viability |  | concentration not given, added: with temozolomide |  | EC50 | 1.8 µM |
| C=Cc1c2[n-]c(c1C)/C=c1\[n-]/c(c(C)c1C=C)=C\c1[n-]c(c(CCC(=O)O)c1C)/C=c1\[n-]c(c(C)c1CCC(=O)O)=C2.[Sn+4] | SH-SY5Y | RNA-seq, measured: LIF mRNA |  | 5 µM, 5 h | reference: untreated cells | fold change | 6.91 |
| O=C(Nc1ccc2c(O)cc(S(=O)(=O)O)cc2c1)Nc1ccc2c(O)cc(S(=O)(=O)O)cc2c1 | OCI-Ly1 |  |  | 0.1 µM, 120 h |  | viability | 186% |
| C=CC1=C(C)c2cc3[n-]c(cc4nc(cc5[n-]c(cc1n2)c(C)c5C=C)C(C)=C4CCC(=O)O)c(CCC(=O)O)c3C.[Zn+2] | SH-SY5Y | RNA-seq, measured: PLAT mRNA |  | 5 µM, 5 h | reference: untreated cells | fold change | 1.87 |
| Cc1ncsc1-c1ccc([C@H](C)NC(=O)[C@H]2C[C@H](O)CN2C(=O)[C@@H](NC(=O)CCCCCCCCCNC(=O)c2ccc3c(c2)[C@H](NC(=O)c2cc(-c4ccc(C(=O)N(C)C)c(O)c4)on2)CC3)C(C)(C)C)cc1 | MV4-11 | TMT proteomics, measured: CCDC106 protein |  | concentration not given, 2 h | reference: DMSO | log2 fold change | -0.364 |
| O=C(COc1cccc2c1C(=O)N(C1CCC(=O)NC1=O)C2=O)NCCOCCOCCNS(=O)(=O)Nc1cccc(-c2cn3cc(C(=O)NC4CCC4)ccc3n2)c1 (stereo not drawn) | MV4-11 | TMT proteomics, measured: RPLP2 | whole proteome | 10 µM, 16 h | reference: DMSO | log2 fold change | -0.081 |
| O=c1[nH]nc(OCCCc2ccc(Cl)cc2)c(NCc2cccnc2)c1Br | HEK-293T | RNA-seq GSEA, measured: HALLMARK_MTORC1_SIGNALING |  | concentration not given | direction not given | normalized enrichment score | 1.99 |
| COc1cc([C@@H]2c3cc4c(cc3[C@@H](O[C@@H]3O[C@@H]5CO[C@@H](C)O[C@H]5[C@H](O)[C@H]3O)[C@H]3COC(=O)[C@H]23)OCO4)cc(OC)c1O | OCI-Ly1 |  |  | 1 µM, 120 h |  | viability | 7.79% |
| CCn1c(=O)/c(=C2\Sc3cc(Cl)ccc3N2C)s/c1=C\c1scc[n+]1Cc1ccccc1.[Cl-] | iPSC-derived cardiomyocytes | initial hit retest |  | concentration not given, 24 h, plate-normalised |  | MyBP-C protein level | 15% |
| C=C(C)[C@@H](CC=C(C)C)C[C@@]12C[C@@H](CC=C(C)C)C(C)(C)[C@@](CC=C(C)C)(C(=O)C(C(=O)c3ccc(O)c(O)c3)=C1O)C2=O | OCI-Ly1 |  |  | 0.1 µM, 120 h |  | viability | 4.87% |
| O=C(/C=C/C=C/C=C/C1CCCCC1)NC1=C[C@@](O)(/C=C/C=C/C=C/C(=O)NC2=C(O)CCC2=O)[C@@H]2O[C@@H]2C1=O | HCC1954 | cell growth, CellTiter-Glo |  | 78 h |  | GI50 | 14.7 µM |
| Cc1nc(Nc2ncc(C(=O)Nc3c(C)cccc3Cl)s2)cc(N2CC[C@H](O)C2)n1 | NAMALWA | cell proliferation, CellTiter-Glo |  | 10 µM, 72 h |  | inhibition | 59% |
| C[C@H]1[C@@H](O)O[C@@H]2O[C@@]3(C)CC[C@H]4[C@H](C)CC[C@@H]1[C@@]24OO3 | THP-1 | annexin V/PI flow cytometry, measured: annexin V-/PI+ |  | 0.8 µM, 24 h |  | necrotic cells | 0% |
| [Cl-].[Cl-].[Ru+2].c1cnc2c(c1)ccc1cccnc12.c1cnc2c(c1)ccc1cccnc12.c1csc(-c2ccc(-c3ccc(-c4nc5c6cccnc6c6ncccc6c5[nH]4)s3)s2)c1 | SK-MEL-28 |  |  | normoxia, added: visible light 100 J/cm2 |  | EC50 | 0.057 µM |
| COc1ccc(NC(=S)N/N=C/c2cccc3cc4ccccc4nc23)cc1 | HeLa | PI flow cytometry |  | IC12.5, 48 h, added: N-acetylcysteine |  | S phase cells | 24.9 ± 1% |
| COc1cc2ncnc(Nc3ccc(Oc4ccccc4)cc3C)c2cc1OC.O=C(O)C(F)(F)F | COLO 205 (BRAF V600E) | resazurin |  | 0.1 µM, 72 h, added: trametinib 0 nM |  | fractional effect | 5% |
| C=C1C(=O)OC2CC1C(OC(C)=O)C/C(C)=C/CC/C(C)=C\CCC2(C)O (stereo not drawn) | iPSC-derived cardiomyocytes | concentration-response curve, measured: MyBP-C protein level |  |  |  | EC50 | > 50 µM |
| Cc1cccc(-c2[nH]c(CNc3ccccc3F)nc2-c2ccc3ncnn3c2)n1 | pomalidomide-resistant MM1.S cells | XTT |  | 1 µM | higher = more viable cells | XTT absorbance | 3.3 E-1 and 3.2 E-1 and 5.3 E-1 |
| CN1CCN(c2ccc3[nH]c(-c4ccc5[nH]c(-c6ccc(C(F)(F)F)cc6)nc5c4)nc3c2)CC1 | 786-0 | cell growth, NCI-60 SRB |  | 10 µM, 48 h |  | growth percent | 69.6% |
